Measurements collected from several papers.
Each line is one published result; not all experiments were run side by side. ± marks the error that the study gave. Converted amounts (≈) assume the structure as drawn.
Cell line: MCF7

| Structure (SMILES) | assay | setting | scale | endpoint | value |
| --- | --- | --- | --- | --- | --- |
| Cc1ccc(NC(=O)C2C(=O)C(c3ccccc3)c3ccc4c(c32)C(=O)c2ccccc2C4=O)cc1 (stereo not drawn) | – | – | baseline: Vero IC50 over MCF7 IC50 | selectivity index | 1.1 |
| Cc1nn(-c2ccccc2)c2c1C(c1ccc3c(c1)OCO3)N(C(=O)c1ccncc1)N2 (stereo not drawn) | – | – | baseline: LC50 Vero over LC50 MCF7 | selectivity index | 1.28 |
| COc1ccc(NC(=O)C2C(=O)C(c3ccccc3)c3ccc4c(c32)C(=O)c2ccccc2C4=O)cc1 (stereo not drawn) | cytotoxicity | – | – | CC50 | 63.06 ± 0.02 µg/mL (≈ 129 µM) |
| CCCCCCCCC=CCCCCCCCC(=O)OC(COC(=O)Cc1c(C)n(C(=O)c2ccc(Cl)cc2)c2ccc(OC)cc12)COP(=O)([O-])OCC[N+](C)(C)C (stereo not drawn) | SRB | – | baseline: MCF-10A IC50 over MCF7 IC50 | selectivity index | 3.12 |
| Cc1cccc(O)c1C(=O)OCC1(O)C(Nc2ccc3c(c2)Cc2ccccc2-3)C(N)C(NC(=O)N(C)C)(C(C)O)C1(C)O (stereo not drawn) | cell growth or viability, SRB | – | – | GI50 | 730 nM |
| O=C1c2ccccc2C(=O)c2c1ccc1c2C(C(=O)Nc2ccc(Cl)cc2)C(=O)C1c1ccccc1 (stereo not drawn) | cytotoxicity | – | – | CC50 | > 100 µg/mL |
| CC(C)c1cnn2c(NCc3ccccc3)cc(N[C@@H](CO)[C@H](O)CO)nc12 | sulforhodamine B | 2.5 µM | – | surviving cells | 10% |
| Cc1cc(C)n2c1C=C1C=CC(CCC(=O)NCCCCCC(=O)NCCOCCOCCOCCOCCOCCOCCNC(=O)[C@H](Cc3c[nH]c4ccccc34)NC(=O)[C@@H](CC(C)C)NC(=O)[C@H](Cc3c[nH]c4ccccc34)NC(=O)[C@@H](CC(C)C)NC(=O)[C@H](Cc3c[nH]c4ccccc34)NC(=O)[C@@H](CC(C)C)NC(=O)[C@H](Cc3c[nH]c4ccccc34)NC(=O)[C@H](NC(=O)[C@@H](NC(=O)[C@H](NC(=O)[C@H](C)NC(=O)[C@@H](CC(C)C)NC(=O)[C@H](C)NC(=O)CNC(=O)[C@@H](NC=O)C(C)C)C(C)C)C(C)C)C(C)C)=[N+]1[B-]2(F)F | sulforhodamine B | 48 h | – | LC50 | > 3000 nM |
| O=C1c2ccccc2C(=O)c2c1ccc1c2C(C(=O)Nc2ccccc2)C(=O)C1c1ccccc1 (stereo not drawn) | – | – | baseline: Vero IC50 over MCF7 IC50 | selectivity index | 1.18 |
| CN1C(=O)C2(Cc3ccc(CC45SSC(CO)(C(=O)N4C)N(C)C5=O)cc3)SSC1(CO)C(=O)N2C (racemic) | qRT-PCR, refers to: LOX | 600 nM, hypoxia | – | mRNA level inhibition | 94% |
| CC(=O)N1CCCC[C@H]1C(=O)NC(C)(C)C(=O)N1CCCC[C@H]1C(=O)NC(C)(C)C(=O)NC(C)(C)C(=O)N[C@@H](CC(C)C)C(=O)N[C@H](C)CC(=O)NCC(=O)NC(C)(C)C(=O)NC(C)(C)C(=O)N1CCCC[C@H]1C(=O)NC(C)(C)C(=O)NCC(=O)N[C@@H](CC(C)C)C(=O)NC(C)(C)C(=O)N[C@@H](CC(C)C)C[N+]1=C2CCCN2CCC1 | cell growth or viability, SRB | 48 h | – | GI50 | 173 nM |
| CC(N)C(O)CCCCCCCCCCCCCCC(=O)CCCCCCCC(O)C(C)N (stereo not drawn) | cytotoxicity, resazurin | – | baseline: MCF-12A over MCF7 | selectivity index | 2.7 |
| CC[C@H](C)[C@H](NC(=O)CNC(=O)[C@H](Cc1ccc(O)cc1)NC(=O)[C@H](CO)NC(=O)[C@H](Cc1ccc(O)cc1)NC(=O)[C@@H](NC(=O)[C@H](CC(=O)O)NC(=O)[C@H](CO)NC(=O)[C@H](CCC(N)=O)NC(=O)[C@H](Cc1ccccc1)NC(=O)[C@H](CO)NC(=O)[C@H](Cc1ccccc1)NC(=O)[C@@H]1CCCN1C(=O)[C@H](CC(N)=O)NC(=O)[C@H](CC(N)=O)NC(=O)[C@H](CC(=O)O)NC(=O)[C@H](CCC(N)=O)NC(=O)[C@@H]1CCCN1C(=O)[C@H](CCCNC(=N)N)NC(=O)[C@H](CCCNC(=N)N)NC(=O)[C@H](CCCNC(=N)N)NC(=O)[C@H](CCC(N)=O)NC(=O)[C@H](CCCNC(=N)N)NC(=O)[C@H](CCCNC(=N)N)NC(=O)[C@H](CCCCN)NC(=O)[C@H](CCCCN)NC(=O)[C@H](CCCNC(=N)N)NC(=O)CN)C(C)C)C(=O)N[C@H](C(=O)N[C@@H](CC(C)C)C(N)=O)C(C)C | annexin V/7-AAD flow cytometry | 50 µM, 48 h | – | late apoptotic cells | 64.3% |
| O=C1c2ccccc2C(=O)c2c1ccc1c2C(C(=O)Nc2ccccc2Cl)C(=O)C1c1ccccc1 (stereo not drawn) | cytotoxicity | – | – | CC50 | 52.67 ± 0.02 µg/mL (≈ 107 µM) |
| C#CCOCC1=C(C(=O)OCC)C(c2cccc(Cl)c2)N2C(=N1)Sc1ccccc12 (stereo not drawn) | MTT | 100 µM, 48 h | – | viability | ~52% |
| CC(=O)N1CCCC[C@H]1C(=O)NC(C)(C)C(=O)N1CCCC[C@H]1C(=O)NC(C)(C)C(=O)NC(C)(C)C(=O)N[C@@H](CC(C)C)C(=O)NCCC(=O)NCC(=O)NC(C)(C)C(=O)NC(C)(C)C(=O)N1CCCC[C@H]1C(=O)NC(C)(C)C(=O)NCC(=O)N[C@@H](CC(C)C)C(=O)NC(C)(C)C(=O)N[C@@H](CC(C)C)C[N+]1=C2CCCN2CCC1 | cell growth or viability, SRB | 48 h | – | GI50 | 37 nM |
| Cc1cc(C)n2c1C=C1C=CC(CCC(=O)NCCCCCC(=O)NCCOCCOCCOCCOCCOCCOCCNC(=O)[C@H](Cc3c[nH]c4ccccc34)NC(=O)[C@@H](CC(C)C)NC(=O)[C@H](Cc3c[nH]c4ccccc34)NC(=O)[C@@H](CC(C)C)NC(=O)[C@H](Cc3c[nH]c4ccccc34)NC(=O)[C@@H](CC(C)C)NC(=O)[C@H](Cc3c[nH]c4ccccc34)NC(=O)[C@H](NC(=O)[C@@H](NC(=O)[C@H](NC(=O)[C@H](C)NC(=O)[C@@H](CC(C)C)NC(=O)[C@H](C)NC(=O)CNC(=O)[C@@H](NC=O)C(C)C)C(C)C)C(C)C)[C@H](C)O)=[N+]1[B-]2(F)F | cell growth or viability, SRB | 48 h | – | GI50 | 2800 nM |
| C=CC[P](c1ccccc1)(c1ccccc1)[Pt]([S]c1ccccn1)([S]c1ccccn1)[P](CC=C)(c1ccccc1)c1ccccc1 | annexin V/7-AAD flow cytometry | 5 µM | – | early apoptotic cells | 40.8% |

Repeated from above:
| Structure (SMILES) | assay | setting | scale | endpoint | value |
| --- | --- | --- | --- | --- | --- |
| CN1C(=O)C2(Cc3ccc(CC45SSC(CO)(C(=O)N4C)N(C)C5=O)cc3)SSC1(CO)C(=O)N2C (racemic) | qRT-PCR, refers to: LOX | 600 nM, hypoxia | – | mRNA level inhibition | 94% |
| CC(=O)N1CCCC[C@H]1C(=O)NC(C)(C)C(=O)N1CCCC[C@H]1C(=O)NC(C)(C)C(=O)NC(C)(C)C(=O)N[C@@H](CC(C)C)C(=O)N[C@H](C)CC(=O)NCC(=O)NC(C)(C)C(=O)NC(C)(C)C(=O)N1CCCC[C@H]1C(=O)NC(C)(C)C(=O)NCC(=O)N[C@@H](CC(C)C)C(=O)NC(C)(C)C(=O)N[C@@H](CC(C)C)C[N+]1=C2CCCN2CCC1 | cell growth or viability, SRB | 48 h | – | GI50 | 173 nM |
